Published values collected from several papers.
± gives the spread as reported.

Structure (SMILES) | cell line | assay | conditions | how to read | measurement | value
CC(ON(C(C)(C)C)C(C)(C)C)c1ccc(NC(=O)[C@@H](NC(=O)[C@@H]2CCCN2C(=O)[C@H](C)NC(=O)[C@H](C)NC(=O)CCC(=O)O)C(C)C)cc1 (stereo partly shown) | U87 | cell viability, PrestoBlue | 48 h, with: HNE 0.68 µM |  | LC50 | ~150 µM
CCCc1cc(OC)c2c(c1)OCO2 | SK-OV-3 | cell growth or viability, MTT | 72 h |  | GI50 | > 250 µM
COC(=O)C1=CO[C@@H](OC(C)=O)[C@@H]2C(Cn3cc(CCN4C(=O)c5ccccc5C4=O)nn3)=CC[C@H]12 | SK-N-SH | neuroprotection, MTT | 0.6 µM, 24 h, with: 250 µM H2O2 |  | viability | 65.5 ± 2.7%
CCC(C)C(=O)OC1C2C3(C)CCC(OC4CC(OC)C(OC5OC(C)C(OC6OC(CO)C(O)C(O)C6O)C(OC)C5O)C(C)O4)CC3CCC23OC32CCC(C(C)=O)C2(C)C1OC(C)=O (stereo not shown) | MDA435/LCC6-MDR1 | cell growth, MDR reversal, SRB | 10 µM, with: paclitaxel | relative to: paclitaxel alone over combination | fold reversal of IC50 | 1
CC/C=C\C/C=C\C/C=C\C/C=C\C/C=C\C/C=C\CCC(=O)Nc1ccn(C2OC(CO)C(O)C2(F)F)c(=O)n1 (stereo not shown) | SF-268 | NCI60 screen |  |  | CC50 | 42.3 µM
COC(=O)C1=CO[C@@H](OC(C)=O)[C@@H]2C(Cn3cc(COCc4ccccc4)nn3)=CC[C@H]12 | SK-N-SH | neuroprotection, MTT | 0.15 µM, 24 h, with: 250 µM H2O2 |  | viability | 73 ± 0.2%
C1=CCCC=CCC1.C1=CCCC=CCC1.O=C(N=P12CN3CN(CN(C3)C1)C2)c1cccc[c]1[Pt+].O=C(N=P12CN3CN(CN(C3)C1)C2)c1cccc[c]1[Pt+].[Cl][Hg-]([Cl])[Cl].[Cl][Hg-]([Cl])[Cl].[Cl][Hg][Cl].[Cl][Hg][Cl] | Jurkat | annexin V flow cytometry | 10 µM, 24 h, with: z-VAD-fmk 50 µM | relative to: total cells | cell death | 25%
CN1CCN(C(c2ccccn2)c2c(-c3ccccc3)n(O)c3ccccc23)CC1 (stereo not shown) | wild-type and BAX/BAK double-knockout BMK | crystal violet | concentration not given, 24 h, regrowth 3 days |  | survival and regrowth | no effect
COc1ccc(Nc2c3c(nc4ccccc24)CCCC3)cc1 | SH-SY5Y | MTT | 50 µM, 1 h pretreatment, 10% FBS, with: H2O2 |  | viability | 47.7 ± 2.63%
COc1cc(C(=O)NCCOCCOCCOCCNC(=O)c2ccc([18F])nc2)ccc1NC(=O)C1NC(CC(C)(C)C)C(C#N)(c2ccc(Cl)cc2F)C1c1cccc(Cl)c1F (stereo not shown) | HepG2 |  |  | relative to: added dose | uptake | ~70%
COC(=O)C1=CO[C@@H](O)[C@@H]2C(Cn3cc(-c4ccc(F)cc4)nn3)=CC[C@H]12 | SK-N-SH | neuroprotection, MTT | 0.6 µM, 24 h, with: 250 µM H2O2 |  | viability | 59.9 ± 0.7%
Cc1cc(C)c(N2CCN(c3c(C)cc(C)cc3C)C2=[Se])c(C)c1.[Cl][Ag] | LoVo-OXP colon cancer cells | MTT |  | relative to: LoVo-OXP over LoVo IC50 | resistance factor | 0.8
CCCCCCCCCCCCCC(=O)NCC(=O)N[C@@H](CCCNC(=N)N)C(=O)N[C@@H](Cc1c[nH]c2ccccc12)C(=O)N[C@@H](CCCCN)C(=O)N[C@H](C(=O)N[C@@H](Cc1ccccc1)C(=O)N[C@@H](CCCCN)C(=O)N[C@@H](CCCCN)C(=O)N[C@H](C(=O)N[C@@H](CCC(=O)O)C(=O)N[C@@H](CCCCN)C(=O)N[C@H](C(=O)NCC(=O)N[C@@H](CCC(N)=O)C(=O)N[C@@H](CC(N)=O)C(=O)N[C@H](C(=O)N[C@@H](CCCNC(=N)N)C(=O)N[C@@H](CC(=O)O)C(=O)NCC(=O)N[C@H](C(=O)N[C@H](C(=O)N[C@@H](CCCCN)C(=O)N[C@@H](C)C(=O)NCC(=O)N1CCC[C@H]1C(=O)N[C@@H](C)C(=O)N[C@H](C(=O)N[C@@H](C)C(=O)N[C@H](C(=O)N[C@H](C(=O)NCC(=O)N[C@@H](CCC(N)=O)C(=O)N[C@@H](C)C(=O)N[C@@H](C)C(=O)N[C@H](C(=O)N[C@H](C(N)=O)[C@@H](C)CC)[C@@H](C)O)C(C)C)C(C)C)C(C)C)C(C)C)[C@@H](C)CC)[C@@H](C)CC)C(C)C)[C@@H](C)CC)[C@@H](C)CC | Jurkat | western blot | concentration not given, 16 h |  | Bax/Bcl-2 ratio | increased
CC1(C)C(=O)[O][Pt][O]C1=O.N[C@@H]1CCCC[C@H]1N | DU-145 GLUT1 shRNA knockdown | cell viability, MTT | 7.5 h plus 64 h recovery | relative to: parental DU-145 | IC50 change | no effect
C[C@@H](O)[C@H](NC(=O)[C@@H]1CSSC[C@H](NC(=O)[C@@H](Cc2ccccc2)NC(=O)CN2CCCN3CCN(CCCN(CP(=O)(O)O)CC3)CC2)C(=O)N[C@@H](Cc2ccc(O)cc2)C(=O)N[C@H](Cc2c[nH]c3ccccc23)C(=O)N[C@@H](CCCCN)C(=O)N[C@@H]([C@@H](C)O)C(=O)N1)C(=O)O [copper-64 labelled] | AR-42J |  | 4 nM, 240 min | relative to: added activity/mg protein | internalization | 34 ± 0.4%
C[OH+][Cu-2]12[O]C(c3cn(-c4ccccc4)nc3-c3ccc(F)cc3)=N[N+]1=C(C)c1c(cc(C)oc1=O)[O]2 (stereo not shown) | A549 and Vero cells | cell viability, MTT |  | relative to: IC50 Vero over IC50 A549 | selectivity index | 5.7
[Cl][Ag].[Se]=c1n(C2CCCCC2)ccn1C1CCCCC1 | LoVo-OXP colon cancer cells | MTT |  | relative to: LoVo-OXP over LoVo IC50 | resistance factor | 0.9
O=C(O)CCC(NP(=O)(O)OCCC[C@@H](NC(=O)CCC(NC(=O)c1ccc([18F])cc1)C(=O)O)C(=O)O)C(=O)O (stereo partly shown) | CWR22Rv1 |  | 2 h |  | cell uptake | 0.7 ± 0.45%
COC(=O)C1=CO[C@@H](O)[C@@H]2C(Cn3cc(C(O)(c4ccccc4)c4ccccc4)nn3)=CC[C@H]12 | SK-N-SH | neuroprotection, MTT | 0.3 µM, 24 h, with: 250 µM H2O2 |  | viability | 72.7 ± 2.6%

Structure (SMILES) | cell line | assay | conditions | how to read | measurement | value
C[P+](c1ccccc1)(c1ccccc1)c1ccccc1 | SK-OV-3 | cell growth or viability, MTT | 72 h |  | GI50 | > 250 µM
COC(=O)C1=CO[C@@H](O)[C@@H]2C(Cn3cc(CN4C(=O)c5ccccc5C4=O)nn3)=CC[C@H]12 | SK-N-SH | neuroprotection, MTT | 0.6 µM, 24 h, with: 250 µM H2O2 |  | viability | 72.2 ± 0.9%
CC(C)CC(O)(CC(C)C)c1cn(C(=O)N2CCCC2)nn1 | mouse T-cells | N-terminal labelling enrichment, refers to: TFG N-terminal peptides | 1 nM, 6 h, protein median | relative to: DMSO | SILAC ratio | 2.36 ± 0.5
c1ccc2nc(Nc3c4c(nc5ccccc35)CCCC4)ccc2c1 | SH-SY5Y | MTT | 50 µM, 1 h pretreatment, 10% FBS, with: H2O2 |  | viability | 62.8 ± 3.37%
Cc1nc(C)c(C=[N+]([O-])C(C)(C)C)nc1C | rat primary midbrain neurons | MTT | 30 µM, with: MPP+ |  | cell survival increase | 9.95%
O=c1c(NCCc2ccc(Br)cc2)c(NC2CCN(Cc3ccccc3)CC2)c1=O | SH-SY5Y | neuroprotection, MTT | 12.5 µM, 24 h pretreatment, with: H2O2 650 µM for 4 h |  | cell survival | 46 ± 1.59%
CC[C@H](C)[C@@H]1NC(=O)[C@H](Cc2cn(CCc3c(C)[nH]c4cc(Cl)cc(Cl)c34)nn2)NC(=O)[C@@H](CC(N)=O)NC(=O)[C@H](CCCNC(=N)N)NC(=O)[C@H](Cc2ccccc2)NC(=O)[C@@H](CC(C)C)NC(=O)[C@H](C)NC(=O)c2cc3cc(c2)C(=O)NC[C@@H](C(=O)N[C@@H](CCCCN)C(N)=O)NC(=O)[C@H](CCCNC(=N)N)NC(=O)[C@H](CCCNC(=N)N)NC(=O)[C@H](CCCNC(=N)N)NC(=O)[C@H](CCCNC(=N)N)NC(=O)[C@H](Cc2ccc4ccccc4c2)NC(=O)[C@H](Cc2ccccc2)NC(=O)[C@H](CCCCNC3=O)NC(=O)[C@H](CC(=O)O)NC1=O | H1299 | annexin V/propidium iodide flow cytometry | 10 µM, 24 h |  | dead cells | 54%
CC(C)C[C@H](NC(=O)[C@H](CO)NC(=O)[C@H](Cc1c[nH]c2ccccc12)NC(=O)[C@H](Cc1ccccc1)NC(=O)[C@H](Cc1ccccc1)NC(=O)[C@H](CCC(N)=O)NC(=O)[C@@H]1CCCN1C(=O)[C@H](CCCNC(=N)N)NC(=O)[C@H](CCCNC(=N)N)NC(=O)[C@H](CCCNC(=N)N)NC(=O)[C@H](CCC(N)=O)NC(=O)[C@H](CCCNC(=N)N)NC(=O)[C@H](CCCNC(=N)N)NC(=O)[C@H](CCCCN)NC(=O)[C@H](CCCCN)NC(=O)[C@H](CCCNC(=N)N)NC(=O)CNC(=O)[C@@H](N)Cc1ccc(O)cc1)C(=O)N[C@@H](CS)C(=O)N[C@H](C(=O)N[C@@H](C)C(=O)O)[C@@H](C)O | Jurkat |  | 7.5 µM, 17 h, no zVAD-fmk |  | trypan blue-excluding cells | 15%
CCCCCCCCCCOCc1cn(CC2=CC[C@@H]3C(C(=O)OC)=CO[C@@H](O)[C@H]23)nn1 | SK-N-SH | neuroprotection, MTT | 0.075 µM, 24 h, with: 250 µM H2O2 |  | viability | 52.1 ± 0.5%
CN1C(=O)C2(Cc3ccc(CC45SSC(CO)(C(=O)N4C)N(C)C5=O)cc3)SSC1(CO)C(=O)N2C (racemic) | MCF7 cells | microarray | 600 nM, fold change at least 4.0, with: DFO 300 µM | relative to: DFO alone | number of up-regulated transcripts | 40
COC(=O)C1=CO[C@@H](OC(C)=O)[C@@H]2C(Cn3cc(COCc4ccc(OC)cc4)nn3)=CC[C@H]12 | SK-N-SH | neuroprotection, MTT | 0.075 µM, 24 h, with: 250 µM H2O2 |  | viability | 62.7 ± 0.3%
CCCCCCCCC1(CCCCCCCC)c2cc(-c3cc4[n+]5c(c3)-c3cccc[n+]3[Ir-3]536([c]5c(c(C)cc(C)c5-c5cccc[n+]53)-c3cccc[n+]36)[n+]3ccccc3-4)ccc2-c2ccc(-c3cc4[n+]5c(c3)-c3cccc[n+]3[Ir-3]536([c]5c(c(C)cc(C)c5-c5cccc[n+]53)-c3cccc[n+]36)[n+]3ccccc3-4)cc21.F[P-](F)(F)(F)(F)F.F[P-](F)(F)(F)(F)F.F[P-](F)(F)(F)(F)F.F[P-](F)(F)(F)(F)F | SK-MEL-28 |  | red light 100 J/cm2 | relative to: dark EC50 over red-light EC50 | phototherapeutic index | 1
COC(=O)C1=CO[C@@H](OC(C)=O)[C@@H]2C(Cn3cc(CN(C)Cc4ccccc4)nn3)=CC[C@H]12 | SK-N-SH | neuroprotection, MTT | 0.6 µM, 24 h, with: 250 µM H2O2 |  | viability | 51.2 ± 0.8%
c1ccc(Nc2c3c(nc4ccccc24)CCCC3)cc1 | SH-SY5Y | MTT | 50 µM, 1 h pretreatment, 10% FBS, with: H2O2 |  | viability | 60.4 ± 2.73%
[Ga+3].[O-]c1ccc(Br)c2cccnc12.[O-]c1ccc(Br)c2cccnc12.[O-]c1ccc(Br)c2cccnc12 | HCC1806 | cell growth or viability, SRB | 10 µM, 48 h |  | inhibition | 91.4%
CC=C(C)C(=O)OC1C2C3(C)CCC(OC4CC(OC)C(OC5OC(C)C(O)C(OC)C5O)C(C)O4)CC3CCC23OC32CCC(C(C)=O)C2(C)C1OC(C)=O (stereo not shown) | MDA435/LCC6-MDR1 | cell growth, MDR reversal, SRB | 10 µM, with: doxorubicin | relative to: doxorubicin alone over combination | fold reversal of IC50 | 4
[N]#[Os]([Cl])([Cl])[Cl].c1ccc(-c2ccnc3c2ccc2c(-c4ccccc4)ccnc23)cc1 | A2780 | immunoblot, refers to: phospho-eIF2α and CHOP | concentration not given, 72 h |  | protein level | increased
CCOc1c(C(C)(C)O)sc2cnc(Nc3ccc(N4CCC(N5CC6(COC6)C5)CC4)cc3OC)nc12 | human atrial cardiomyocytes | confocal line scan | 3 and 10 µM | relative to: vehicle | SR Ca leak | decreased

A few entries again:
Structure (SMILES) | cell line | assay | conditions | how to read | measurement | value
CC/C=C\C/C=C\C/C=C\C/C=C\C/C=C\C/C=C\CCC(=O)Nc1ccn(C2OC(CO)C(O)C2(F)F)c(=O)n1 (stereo not shown) | SF-268 | NCI60 screen |  |  | CC50 | 42.3 µM
CC1(C)C(=O)[O][Pt][O]C1=O.N[C@@H]1CCCC[C@H]1N | DU-145 GLUT1 shRNA knockdown | cell viability, MTT | 7.5 h plus 64 h recovery | relative to: parental DU-145 | IC50 change | no effect
CN1C(=O)C2(Cc3ccc(CC45SSC(CO)(C(=O)N4C)N(C)C5=O)cc3)SSC1(CO)C(=O)N2C (racemic) | MCF7 cells | microarray | 600 nM, fold change at least 4.0, with: DFO 300 µM | relative to: DFO alone | number of up-regulated transcripts | 40
COC(=O)C1=CO[C@@H](OC(C)=O)[C@@H]2C(Cn3cc(COCc4ccccc4)nn3)=CC[C@H]12 | SK-N-SH | neuroprotection, MTT | 0.15 µM, 24 h, with: 250 µM H2O2 |  | viability | 73 ± 0.2%
